Measured values of several laboratories.
Numbered parts are unrelated; each lists some results of a single study. Values joined by “and” are separate records of one study, mostly repeats; a detail may differ.
UniProt Q9UIK4, sequence (whole entry, looked up): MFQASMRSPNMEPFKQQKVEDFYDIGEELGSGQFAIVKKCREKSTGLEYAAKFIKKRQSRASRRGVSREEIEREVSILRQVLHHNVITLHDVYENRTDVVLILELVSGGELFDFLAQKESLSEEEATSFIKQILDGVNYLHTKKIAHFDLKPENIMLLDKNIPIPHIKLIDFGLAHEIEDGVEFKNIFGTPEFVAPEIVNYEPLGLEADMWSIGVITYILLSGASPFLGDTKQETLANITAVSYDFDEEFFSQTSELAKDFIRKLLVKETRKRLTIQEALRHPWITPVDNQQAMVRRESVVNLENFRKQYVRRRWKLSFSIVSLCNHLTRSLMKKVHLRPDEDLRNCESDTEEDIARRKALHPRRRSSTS
UniProt Q96RR4, sequence (whole entry, looked up): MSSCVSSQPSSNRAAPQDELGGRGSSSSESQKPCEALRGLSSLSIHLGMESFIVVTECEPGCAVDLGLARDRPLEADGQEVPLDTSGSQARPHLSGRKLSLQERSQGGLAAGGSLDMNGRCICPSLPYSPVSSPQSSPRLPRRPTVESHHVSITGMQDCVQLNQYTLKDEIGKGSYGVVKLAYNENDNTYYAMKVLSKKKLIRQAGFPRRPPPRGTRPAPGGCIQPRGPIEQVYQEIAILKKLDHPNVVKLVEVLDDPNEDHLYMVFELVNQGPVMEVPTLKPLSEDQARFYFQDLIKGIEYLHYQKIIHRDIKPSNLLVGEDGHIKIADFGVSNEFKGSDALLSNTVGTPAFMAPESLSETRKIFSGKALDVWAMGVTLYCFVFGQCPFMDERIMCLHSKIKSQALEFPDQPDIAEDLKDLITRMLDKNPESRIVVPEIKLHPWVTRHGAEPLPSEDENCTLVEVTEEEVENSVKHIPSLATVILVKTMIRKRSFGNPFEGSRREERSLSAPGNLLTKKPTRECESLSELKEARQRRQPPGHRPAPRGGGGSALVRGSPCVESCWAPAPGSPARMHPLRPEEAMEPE
UniProt P53355, sequence (whole entry, looked up): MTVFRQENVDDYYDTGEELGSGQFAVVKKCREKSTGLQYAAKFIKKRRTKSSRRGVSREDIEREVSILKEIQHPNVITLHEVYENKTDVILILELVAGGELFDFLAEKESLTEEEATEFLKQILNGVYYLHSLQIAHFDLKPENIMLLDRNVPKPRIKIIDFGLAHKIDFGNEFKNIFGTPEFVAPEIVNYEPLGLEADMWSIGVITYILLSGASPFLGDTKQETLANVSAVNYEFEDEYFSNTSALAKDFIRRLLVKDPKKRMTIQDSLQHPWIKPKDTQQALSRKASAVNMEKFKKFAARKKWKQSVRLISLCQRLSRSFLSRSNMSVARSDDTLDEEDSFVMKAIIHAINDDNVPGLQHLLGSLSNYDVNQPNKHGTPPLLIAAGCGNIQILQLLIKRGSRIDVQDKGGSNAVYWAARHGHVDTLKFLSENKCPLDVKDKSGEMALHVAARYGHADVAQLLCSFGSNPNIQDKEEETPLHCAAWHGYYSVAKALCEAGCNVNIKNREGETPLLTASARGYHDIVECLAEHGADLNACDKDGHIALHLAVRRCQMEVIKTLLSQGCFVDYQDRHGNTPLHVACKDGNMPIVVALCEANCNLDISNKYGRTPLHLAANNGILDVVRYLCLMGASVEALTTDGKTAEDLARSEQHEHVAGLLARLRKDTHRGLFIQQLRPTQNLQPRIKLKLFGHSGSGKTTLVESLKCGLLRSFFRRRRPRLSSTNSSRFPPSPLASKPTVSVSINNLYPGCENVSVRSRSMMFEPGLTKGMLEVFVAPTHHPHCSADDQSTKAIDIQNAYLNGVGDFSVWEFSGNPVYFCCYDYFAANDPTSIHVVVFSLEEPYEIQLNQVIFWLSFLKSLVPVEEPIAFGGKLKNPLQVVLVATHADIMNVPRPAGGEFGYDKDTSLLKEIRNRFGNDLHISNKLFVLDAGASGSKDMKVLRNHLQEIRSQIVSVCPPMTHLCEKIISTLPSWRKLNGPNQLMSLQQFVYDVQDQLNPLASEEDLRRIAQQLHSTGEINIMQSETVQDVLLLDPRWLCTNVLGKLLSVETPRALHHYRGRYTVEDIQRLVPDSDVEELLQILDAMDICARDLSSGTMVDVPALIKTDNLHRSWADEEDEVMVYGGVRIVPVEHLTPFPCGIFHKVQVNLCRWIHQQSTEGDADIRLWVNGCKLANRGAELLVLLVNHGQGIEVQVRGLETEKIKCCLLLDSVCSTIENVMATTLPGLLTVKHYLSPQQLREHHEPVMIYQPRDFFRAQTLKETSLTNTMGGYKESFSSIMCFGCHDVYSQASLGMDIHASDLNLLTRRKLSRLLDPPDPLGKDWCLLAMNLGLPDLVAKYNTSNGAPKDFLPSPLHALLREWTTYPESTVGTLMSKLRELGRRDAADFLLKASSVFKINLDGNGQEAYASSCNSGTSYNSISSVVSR
UniProt P20309, sequence (whole entry, looked up): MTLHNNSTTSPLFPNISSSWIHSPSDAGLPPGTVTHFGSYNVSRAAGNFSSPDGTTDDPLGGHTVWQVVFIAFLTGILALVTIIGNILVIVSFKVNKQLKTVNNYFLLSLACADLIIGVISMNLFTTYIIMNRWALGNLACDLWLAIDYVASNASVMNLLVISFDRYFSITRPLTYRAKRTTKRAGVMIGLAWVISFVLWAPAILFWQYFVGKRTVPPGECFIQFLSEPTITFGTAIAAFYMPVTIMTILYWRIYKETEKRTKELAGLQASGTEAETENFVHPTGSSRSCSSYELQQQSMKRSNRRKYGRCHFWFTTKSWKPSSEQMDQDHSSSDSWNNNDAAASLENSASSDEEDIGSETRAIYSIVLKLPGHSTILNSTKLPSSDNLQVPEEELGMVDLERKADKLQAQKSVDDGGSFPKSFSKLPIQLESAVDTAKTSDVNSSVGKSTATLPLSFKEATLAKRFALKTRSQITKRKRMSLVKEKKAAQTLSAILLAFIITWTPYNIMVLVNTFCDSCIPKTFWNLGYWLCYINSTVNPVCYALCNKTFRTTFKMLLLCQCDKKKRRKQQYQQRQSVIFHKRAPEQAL
UniProt Q15831, sequence (whole entry, looked up): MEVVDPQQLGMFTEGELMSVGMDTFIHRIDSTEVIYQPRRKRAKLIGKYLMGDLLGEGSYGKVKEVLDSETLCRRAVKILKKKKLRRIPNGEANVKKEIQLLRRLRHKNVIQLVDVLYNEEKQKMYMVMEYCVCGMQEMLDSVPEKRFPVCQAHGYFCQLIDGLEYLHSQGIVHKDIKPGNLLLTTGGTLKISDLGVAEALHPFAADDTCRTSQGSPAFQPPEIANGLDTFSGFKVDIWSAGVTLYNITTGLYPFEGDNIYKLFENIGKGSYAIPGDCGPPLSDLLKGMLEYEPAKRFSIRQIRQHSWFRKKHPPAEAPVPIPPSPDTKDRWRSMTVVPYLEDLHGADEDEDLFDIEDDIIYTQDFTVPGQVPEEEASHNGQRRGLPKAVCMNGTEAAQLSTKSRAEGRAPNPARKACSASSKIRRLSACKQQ
UniProt Q32MK0, sequence (whole entry, looked up): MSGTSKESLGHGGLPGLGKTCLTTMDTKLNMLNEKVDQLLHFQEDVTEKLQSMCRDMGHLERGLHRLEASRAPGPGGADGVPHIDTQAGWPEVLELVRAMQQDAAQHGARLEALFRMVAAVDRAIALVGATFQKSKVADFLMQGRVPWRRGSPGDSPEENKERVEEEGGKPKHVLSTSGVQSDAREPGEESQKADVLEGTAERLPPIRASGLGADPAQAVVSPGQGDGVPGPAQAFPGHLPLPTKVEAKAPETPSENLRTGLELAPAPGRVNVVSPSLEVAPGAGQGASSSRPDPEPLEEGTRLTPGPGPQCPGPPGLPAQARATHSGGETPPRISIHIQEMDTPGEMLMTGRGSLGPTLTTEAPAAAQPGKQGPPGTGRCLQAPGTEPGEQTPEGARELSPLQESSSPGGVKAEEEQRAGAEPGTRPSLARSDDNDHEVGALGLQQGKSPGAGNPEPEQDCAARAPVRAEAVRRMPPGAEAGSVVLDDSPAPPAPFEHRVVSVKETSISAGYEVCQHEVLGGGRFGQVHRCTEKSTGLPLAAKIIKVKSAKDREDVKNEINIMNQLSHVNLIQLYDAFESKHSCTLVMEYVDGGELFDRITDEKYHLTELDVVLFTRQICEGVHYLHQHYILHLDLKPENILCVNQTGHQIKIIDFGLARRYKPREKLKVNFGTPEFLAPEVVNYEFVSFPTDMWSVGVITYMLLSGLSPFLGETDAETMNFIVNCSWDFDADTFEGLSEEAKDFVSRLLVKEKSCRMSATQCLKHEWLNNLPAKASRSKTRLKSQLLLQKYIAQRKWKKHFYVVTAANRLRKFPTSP
UniProt P35626, sequence (whole entry, looked up): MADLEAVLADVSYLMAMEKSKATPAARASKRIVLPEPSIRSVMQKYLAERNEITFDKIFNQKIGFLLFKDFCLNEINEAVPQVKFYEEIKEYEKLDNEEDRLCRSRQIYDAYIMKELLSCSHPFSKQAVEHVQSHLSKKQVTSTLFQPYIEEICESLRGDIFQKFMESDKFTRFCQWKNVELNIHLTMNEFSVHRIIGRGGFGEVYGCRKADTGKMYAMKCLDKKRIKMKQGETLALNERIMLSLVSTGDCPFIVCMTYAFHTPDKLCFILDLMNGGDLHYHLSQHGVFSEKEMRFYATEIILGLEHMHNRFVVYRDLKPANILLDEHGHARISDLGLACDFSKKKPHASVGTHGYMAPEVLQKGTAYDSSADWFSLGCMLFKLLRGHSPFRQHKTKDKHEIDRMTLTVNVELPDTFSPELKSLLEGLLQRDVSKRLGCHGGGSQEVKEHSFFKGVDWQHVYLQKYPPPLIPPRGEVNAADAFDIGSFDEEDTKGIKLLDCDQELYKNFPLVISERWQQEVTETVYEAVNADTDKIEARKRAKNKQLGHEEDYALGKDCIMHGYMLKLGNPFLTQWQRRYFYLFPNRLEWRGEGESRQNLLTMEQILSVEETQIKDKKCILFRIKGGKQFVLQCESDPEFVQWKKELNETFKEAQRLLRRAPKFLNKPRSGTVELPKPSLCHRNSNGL

Sample 1
Species: mouse
Sample: microsomes or S9
Tested at: 2 µM
Time: 0.5 h
For `CCOC(=O)c1sc(NC(=O)c2cc(OCC)c(OCC)c(OCC)c2)c(C(N)=O)c1C`, the remaining compound was 58.8%.
For `COc1ccc(CCN2CCC(NC(=O)c3cc4cc(Br)ccc4o3)CC2)cc1`, the remaining compound was 23.1%.
With `COc1ccc2c(c1)OC(=O)C(C(O)c1ccc3c(c1)OCO3)C2c1ccccc1` (stereo not drawn) the remaining compound was > 100%.
For `Cn1cc(C(N)=O)cc1C(=O)Nc1ccccc1Oc1ccccc1`, the remaining compound was 0.27%.
With `COC(=O)C1(CCCN(C)CCc2ccc(OC)c(OC)c2)CCCc2c1ccc(OC)c2OC` (stereo not drawn) the remaining compound was 12.7%.
For `CCOc1ccsc1C1=NOC(C)(COCc2c(Cl)cccc2Cl)C1` (stereo not drawn), the remaining compound was 0%.

Sample 2
Structure (SMILES): COc1ccc2[nH]c3c4[nH]c5ccc(OC)cc5c4c4c(c3c2c1)C(=O)NC4=O
Effect on: binding
Tested at: 1 µM
It gave 91% for remaining binding (LIM domain kinase 1 (LIMK1, Homo sapiens, UniProt P53667); competition with immobilised ligand).
It gave 16% for remaining binding (Myosin light chain kinase (MYLK3, Homo sapiens, UniProt Q32MK0); competition with immobilised ligand).
The remaining binding was 90% (Serine/threonine-protein kinase TNNI3K (TNNI3K, Homo sapiens, UniProt Q59H18); competition with immobilised ligand).
Receptor tyrosine-protein kinase erbB-3 (ERBB3, Homo sapiens, UniProt P21860); competition with immobilised ligand — remaining binding: 85%.
For Dual specificity protein kinase CLK2 (CLK2, Homo sapiens, UniProt P49760): remaining binding read 56%.
It gave 6.3% for remaining binding (Receptor-type tyrosine-protein kinase FLT3 (FLT3, Homo sapiens, UniProt P36888, R834Q)).

Sample 3
SMILES: CC(C)(C)c1cnc(CSc2cnc(NC(=O)C3CCN(CCCCCSc4cccc5c4CN(C4CCC(=O)NC4=O)C5=O)CC3)s2)o1 (stereo not drawn)
Species: NSG mouse, HuT78 xenograft
Dose: dose not given
The tumour volume was 44.5 mm³ and 143 mm³ and 81.6 mm³ and 41.6 mm³ (intraperitoneal, day 2).
The tumour volume was 58.8 mm³ and 39.5 mm³ and 20.2 mm³ and 75.4 mm³ (intraperitoneal, day 7).
The tumour volume was 583 mm³ and 228 mm³ and 296 mm³ and 351 mm³ and 517 mm³ (subcutaneous, day 16).
For subcutaneous, day 10: tumour volume read 103 mm³ and 39.8 mm³ and 92.6 mm³ and 62.5 mm³ and 32 mm³.

Sample 4
Compound: CN1CCN(c2ccc3nc(-c4c(N)c5c(F)cccc5[nH]c4=O)[nH]c3c2)CC1
Effect on: enzyme activity
Mode: inhibitor
Tested at: 0.5 µM
Baseline: control
For Cyclin-dependent kinase 4, with cyclin D1 (CDK4, Homo sapiens, UniProt P11802): remaining activity read 79.5%.
Serine/threonine-protein kinase Nek2 (NEK2, Homo sapiens, UniProt P51955) — remaining activity: 104%.
It gave 56.9% for remaining activity (Calcium/calmodulin-dependent protein kinase type II subunit delta (CAMK2D, Homo sapiens, UniProt Q13557)).
The remaining activity was 104% (Serine/threonine-protein kinase STK11 (STK11, Homo sapiens, UniProt Q15831)).
The remaining activity was 87.8% (Inhibitor of nuclear factor kappa-B kinase subunit beta (IKBKB, Homo sapiens, UniProt O14920)).
It gave 85.9% for remaining activity (Calcium/calmodulin-dependent protein kinase kinase 2 (CAMKK2, Homo sapiens, UniProt Q96RR4)).
For Death-associated protein kinase 2 (DAPK2, Homo sapiens, UniProt Q9UIK4): remaining activity read 82.3%.
For Mitogen-activated protein kinase kinase kinase 3 (MAP3K3, Homo sapiens, UniProt Q99759): remaining activity read 46.5%.
The remaining activity was 41.6% (Serine/threonine-protein kinase 10 (STK10, Homo sapiens, UniProt O94804)).
For TGF-beta receptor type-2 (TGFBR2, Homo sapiens, UniProt P37173): remaining activity read 109%.
The remaining activity was 97.5% (G protein-coupled receptor kinase 3 (GRK3, Homo sapiens, UniProt P35626)).
For Death-associated protein kinase 1 (DAPK1, Homo sapiens, UniProt P53355): remaining activity read 108%.
cAMP-dependent protein kinase catalytic subunit alpha (PRKACA, Homo sapiens, UniProt P17612) — remaining activity: 101%.
Serine/threonine-protein kinase OSR1 (OXSR1, Homo sapiens, UniProt O95747) — remaining activity: 98.7%.
It gave 83.8% for remaining activity (Protein kinase C alpha type (PRKCA, Homo sapiens, UniProt P17252)).
For TGF-beta receptor type-1 (TGFBR1, Homo sapiens, UniProt P36897): remaining activity read 99.3%.
Serine/threonine-protein kinase Chk2 (CHEK2, Homo sapiens, UniProt O96017) — remaining activity: 84.5%.
The remaining activity was 99.2% (Protein kinase C beta type, isoform beta-I (PRKCB, Homo sapiens, UniProt P05771)).
STE20/SPS1-related proline-alanine-rich protein kinase (STK39, Homo sapiens, UniProt Q9UEW8) — remaining activity: 92.3%.
cGMP-dependent protein kinase 1, isoform beta (PRKG1, Homo sapiens, UniProt Q13976) — remaining activity: 84.5%.

Sample 5
SMILES: CCN(c1nc(N)c(C(=O)N=C(N)N)nc1Cl)C(C)C
Effect on: β-arrestin recruitment
Mode: agonist
Technique: PRESTO-Tango
Tested at: 10 µM
Baseline: untreated
For Sphingosine 1-phosphate receptor 2 (S1PR2, Homo sapiens, UniProt O95136): “fold over basal” read 0.21.
The “fold over basal” was 1.84 (D(3) dopamine receptor (DRD3, Homo sapiens, UniProt P35462)).
For Vasopressin V1a receptor (AVPR1A, Homo sapiens, UniProt P37288): “fold over basal” read 1.31.
It gave 0.58 for “fold over basal” (Muscarinic acetylcholine receptor M3 (CHRM3, Homo sapiens, UniProt P20309)).
Alpha-1D adrenergic receptor (ADRA1D, Homo sapiens, UniProt P25100) — “fold over basal”: 1.09.
For D(4) dopamine receptor (DRD4, Homo sapiens, UniProt P21917): “fold over basal” read 0.96.

Further values, each from its own experiment
For `O=C(NCc1ncc(C(F)(F)F)cc1Cl)c1ccc2c(c1)C1(CCS(=O)(=O)CC1)[C@@H](C1CC1)N2S(=O)(=O)c1ccc(F)cc1`, the viability was 108% (sample E normal colon organoid; CellTiter-Glo; 1 µM, 4 days; baseline: DMSO).
`CN(C)[C@@H]1CCN(c2cc(-c3ccccc3)nc3ccnn23)C1` gave a Ki of 1480 nM (5-hydroxytryptamine receptor 1D (HTR1D, Homo sapiens, UniProt P28221); cell-free assay, radioligand).
For `CN(C)C(=O)/C(C#N)=C/c1ccc(-c2nc3cnc4c(ccn4C)c3n2C2CCCCC2)o1`, the viability was 87.6% (sample BA colorectal tumour organoid; 0.1 µM; baseline: DMSO).
